Measured values collected from several papers.
Parts stem from different laboratories: compare values within a part only.

Study 1
Target: Sal-like protein 4, full length isoform A (SALL4, Homo sapiens, UniProt Q9UJQ4, residues 1-1053)
Chain of UniProt Q9UJQ4 (whole entry, looked up): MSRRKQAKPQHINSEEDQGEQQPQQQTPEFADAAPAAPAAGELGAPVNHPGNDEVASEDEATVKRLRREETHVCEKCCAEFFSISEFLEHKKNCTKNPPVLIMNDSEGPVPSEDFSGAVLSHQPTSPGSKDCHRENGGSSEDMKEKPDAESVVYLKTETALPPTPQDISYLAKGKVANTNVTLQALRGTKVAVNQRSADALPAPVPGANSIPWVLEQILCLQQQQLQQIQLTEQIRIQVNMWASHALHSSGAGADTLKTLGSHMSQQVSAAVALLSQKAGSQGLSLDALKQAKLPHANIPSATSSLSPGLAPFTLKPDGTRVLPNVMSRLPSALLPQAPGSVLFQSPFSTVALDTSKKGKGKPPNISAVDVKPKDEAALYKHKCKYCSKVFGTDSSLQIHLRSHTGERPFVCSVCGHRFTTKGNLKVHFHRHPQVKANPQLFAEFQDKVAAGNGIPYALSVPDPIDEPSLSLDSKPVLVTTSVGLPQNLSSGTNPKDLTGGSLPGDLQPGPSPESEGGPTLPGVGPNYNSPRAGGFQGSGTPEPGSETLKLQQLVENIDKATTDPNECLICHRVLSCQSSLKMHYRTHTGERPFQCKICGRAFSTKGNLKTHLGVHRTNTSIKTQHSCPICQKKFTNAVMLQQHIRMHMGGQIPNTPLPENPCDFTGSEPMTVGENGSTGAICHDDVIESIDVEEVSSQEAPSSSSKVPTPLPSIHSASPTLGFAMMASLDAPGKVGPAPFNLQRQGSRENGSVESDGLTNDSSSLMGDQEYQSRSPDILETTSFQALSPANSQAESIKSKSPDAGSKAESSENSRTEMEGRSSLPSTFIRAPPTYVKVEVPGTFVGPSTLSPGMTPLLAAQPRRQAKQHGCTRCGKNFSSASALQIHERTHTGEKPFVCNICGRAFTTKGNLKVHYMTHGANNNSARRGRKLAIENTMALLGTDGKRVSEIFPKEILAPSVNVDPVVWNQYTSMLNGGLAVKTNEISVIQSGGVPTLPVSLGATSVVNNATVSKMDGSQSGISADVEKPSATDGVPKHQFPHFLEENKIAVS
Technique: universal PBM
Molecule type: double-stranded DNA, one strand shown
Medium: in vitro
Tested at: 600 nM
Notes: 8-mer, flanks averaged, mean of replicates
Reading: higher = stronger binding
For `GGTGCCAA`, the E-score was -0.146.
`CCCCTCCG` gave an E-score of -0.233.
The E-score of `AGGGGGGC` is reported as -0.383.
For `CTTGGGAA`, the E-score was -0.00965.
`AAACGAAA` has an E-score of 0.16.
The E-score of `GTAGCCAA` is reported as -0.0406.
The E-score of `CCCAGAGC` is reported as -0.304.
With `ACTGCTAG` the E-score was -0.113.
For `CGCAGACC`, the E-score was -0.288.
`AACTCCTT` has an E-score of 0.159.
The E-score of `ATCCACCG` is reported as -0.209.
`CGAACTCA` has an E-score of -0.15.
For `GGTTTCAA`, the E-score was -0.00934.
`AGAAAACA` gave an E-score of 0.232.
For `AAGTGACA`, the E-score was 0.213.
For `CCCCCACC`, the E-score was -0.339.
The E-score of `AGCACATG` is reported as -0.0971.
`GTAGGGTA` gave an E-score of 0.0994.
The E-score of `AGGCTTAA` is reported as 0.0852.
For `AGATGACA`, the E-score was 0.0472.
With `CTAGTTGC` the E-score was -0.0239.
With `AGAACTTC` the E-score was -0.0911.
`CGGACCGC` has an E-score of -0.344.
`CCTGTCTC` has an E-score of -0.148.

Study 2
Target: Ras GTPase-activating protein-binding protein 1, C-terminal RGG region (G3BP1, Homo sapiens, UniProt Q13283)
Chain of UniProt Q13283 (whole entry, looked up): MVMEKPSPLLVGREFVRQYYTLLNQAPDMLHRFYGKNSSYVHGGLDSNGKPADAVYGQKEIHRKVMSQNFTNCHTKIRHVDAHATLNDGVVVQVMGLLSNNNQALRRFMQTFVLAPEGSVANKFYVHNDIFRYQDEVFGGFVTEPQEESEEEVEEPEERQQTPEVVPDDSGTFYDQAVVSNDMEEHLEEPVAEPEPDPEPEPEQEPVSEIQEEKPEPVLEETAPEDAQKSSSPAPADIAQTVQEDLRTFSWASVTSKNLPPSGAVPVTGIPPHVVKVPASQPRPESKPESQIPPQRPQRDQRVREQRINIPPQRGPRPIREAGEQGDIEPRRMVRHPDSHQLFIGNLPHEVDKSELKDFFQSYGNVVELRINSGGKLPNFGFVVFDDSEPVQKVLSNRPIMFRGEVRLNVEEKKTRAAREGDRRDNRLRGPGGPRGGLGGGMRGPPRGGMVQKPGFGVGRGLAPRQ
Technique: RNA Bind-n-Seq
Molecule type: RNA
Medium: in vitro
Tested at: 1 µM
Notes: whole 134-nt RNA, ends assumed
With: 150 mM KCl
Reference: input library
Reading: higher = stronger binding
Constant ends, left off below: GGGAGUUCUACAGUCCGACGAUC … UGGAAUUCUCGGGUGUCAAGG
With `UAACUUUAGAGGAGGAUCUGAUGGAUAUGGCAGUGGACGUGGAUUUGGGGAUGGCUAUAAUGGGUAUGGUGGAGGACCUGGAGGUGGCAA` the log2 enrichment was -0.637.
`UGGGAGGUGGAUUUUGUUUAUUUUUUUAGCUCAUUUCCAGGGGUGGGAAUUUUUUUUUAAUAUGUGUCAUCAAUAAAGUUGUUUUUGAAA` gave a log2 enrichment of 3.37.
`UCCUGUGCUACACAUCGUAUGUACCGAAUCAAACCCCCAAACCCCCAAACCCCCCCAAAAAAGUAUUAUGUUACGCCGUUCGGAUCUGCA` gave a log2 enrichment of -0.679.
With `UCAAGUCCUGUGCUACACAUCGUAUGUACCGAAUCGGAAAGGAAAGGUUUUUGGAAAGUAUUAUGUUACGCCGUUCGGAUCUGCACUUCC` the log2 enrichment was -1.38.
With `CUCAAGUCCUGUGCUACACAUCGUAUGUACCGAAUCGGGAGGGUUUGGGAGGGAAAGUAUUAUGUUACGCCGUUCGGAUCUGCACUUCCA` the log2 enrichment was 2.07.
With `UGGGAGGCGGAUUUUGUUUAUUUUUUUAGCUCAUUUCCAGGGGUGGGAAUUUUUUUUUAAUAUGUGUCAUGAAUAAAGUUGUUUUUGAAA` the log2 enrichment was 4.06.
The log2 enrichment of `CACAGACAACACGCACCCACACAGACACAGCGGGAAGGGGUUGGGAUGGGGACAGGGUGCACAGCAGGGCGGGGUAGGACCCCAGCCCCU` is reported as -0.154.
With `AGUCCUGUGCUACACAUCGUAUGUACCGAAUCGGGGCCCCCGGCCCCCGGCCCCCGGAAAGUAUUAUGUUACGCCGUUCGGAUCUGCACU` the log2 enrichment was -1.49.
`GUCCUGUGCUACACAUCGUAUGUACCGAAUCGGGGUUUUUUUGGGGAGGGGUUUGGGGAAAGUAUUAUGUUACGCCGUUCGGAUCUGCAC` gave a log2 enrichment of 2.18.
`CCUGUGCUACACAUCGUAUGUACCGAAUCGGCCCCCCCGGCCCCCCCGGGGCCCCCCCGGAAAGUAUUAUGUUACGCCGUUCGGAUCUGC` gave a log2 enrichment of -1.14.
`UGGAUGGACACCAUUAUCGUCGUGUGGCACGGGUUGACCUAAGGAAGAAGACAGAGACUUUCUCCACAAGAAGGGUUAAGUCUGGGCUGU` gave a log2 enrichment of 0.191.
`CAAGUCCUGUGCUACACAUCGUAUGUACCGAAUCGGCCCCGGGCCCCGGGCCCCGGAAAGUAUUAUGUUACGCCGUUCGGAUCUGCACUU` gave a log2 enrichment of -1.99.
The log2 enrichment of `CUCAAGUCCUGUGCUACACAUCGUAUGUACCGAAUCGGUUUGGAAAGGUUUGGAAAGUAUUAUGUUACGCCGUUCGGAUCUGCACUUCCA` is reported as -0.991.
The log2 enrichment of `UGGGAGGUGGAUUUUGUUUAUUUUUUUAGCUCAUUUCCAGGGGUGGGAAUUUUUUUUUAAUAUAUGUCAUGAAUAAAGUUGUUUUUGAAA` is reported as 2.94.

Study 3
Target: RNA binding protein fox-1 homolog 2, RRM domain, GST-SBP tag (RBFOX2, Homo sapiens, UniProt O43251-10, residues 100-194)
Technique: RNA Bind-n-Seq
Molecule type: RNA
Medium: in vitro
Tested at: 365 nM
Notes: natural RNA segment, single round, ends assumed
Reference: no-protein control
Reading: higher = stronger binding
Constant ends, left off below: GGGAGUUCUACAGUCCGACGAUC … UGGAAUUCUCGGGUGCCAA
Target sequence (chain): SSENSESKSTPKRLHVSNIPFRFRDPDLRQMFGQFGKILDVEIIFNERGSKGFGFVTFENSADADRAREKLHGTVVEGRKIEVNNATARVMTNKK
`GGAAUUUGCUAAGCUUUCUCUUGAAUUUGAGCCAGUGAGAAAAGCAGUCAGAAGAAUGUGAAGGAUGUCUGCGCUGCAGCCUCCAGUGCUGGGUACGCUUCUCUCGUGGG` — result for “RBNS enrichment (R)”: 2.37.
For `GUUCGGAAGACUCAUCUAGCCCUUGGGUGCUGACCAGCAGAGCUGCUAGUGGAUAUUGGAGUUACAUGAGCUACGUGUUAAUAUUCAGUCUCCAGAAUAAACGUCCCAGC`, “RBNS enrichment (R)” read 0.229.
`UCUUUGGGCAGAGAUUCUAUUUUUGACAUUUGCACAAGACAGGUAGGGAAAGGGGACUUGUGGUAGUGGACCAUACCUGGGGACCAAAAGAGACCCACUGUAAUUGAUGC` — result for “RBNS enrichment (R)”: 0.974.
`UCGACACCAGGAGCUGUUGGGAGAAAGCAAUACGUUUGUGCAGAAUCUCUAUGUAUAUUCUAUUUUAUUAAAUUAAUUGAAUCUAGUAUAUGCUGGAUGUACGACAUUUU` — result for “RBNS enrichment (R)”: 0.613.
`CACAACACACUGUAUGUGCAUACAUGAAACACAAACAGCUUUUUACUGAACAGAAUUAUAGACAUUUGCUGGUGGAAGGGAUAACUAUGUACAUCUAACUAGGACUCAGA`: “RBNS enrichment (R)” 0.61.
Under “RBNS enrichment (R)”, `CCAUCUUUCCCUCAAGUGACCGUAUCUAGUGACAGGAAGGGAGAACCCUACAGUAGAUCCCUCUGCUUGGGUUUCAACUGGAGAUAGUGCCUUCCCCUGAUAACCAUUUU` is recorded as 0.279.
Under “RBNS enrichment (R)”, `CCUGGUUUUGAUGAGCAUUGAAGGCACCUGGGAAAUGAGGCCCACAGACUCAAAGUUACUCUCCUUCCCCCUACCUGGGCCAGUGAAAUAGAAAGCCUUUCUAUUUUUUG` is recorded as 3.15.
`AUCACCUAGGACUGACUCGGCAGUGUGCAGUGGUGCAUGCACUGUCUCAGCCAACCCGCUCCACUACCCGGCAGGGUACACAUUCGCACCCCUACUUCACAGAGGAAGAA` — result for “RBNS enrichment (R)”: 0.852.
Under “RBNS enrichment (R)”, `ACAUAAUCCUUUGUAUGUGCAGUUUGUAAAGUAUCUGCAGAAUUAAAUGCUCUUAUUUACAGAUCAGAAAACUAACACCAGUGUCAGGAUCACAGUAUGGGAAUGACUGA` is recorded as 0.292.
Under “RBNS enrichment (R)”, `AUUGUGAGAGAUUUGUCACCAAUCAUCACUGGUUCCUCCUUAAAAAUUAAAAAGUAACUUCUGUGUACCGAAUGAAUGUUGACUUAAAUACGGAGAGAGUGAGUCUCAAG` is recorded as 0.487.
`CUGUAAGAGAAUAGAAUGGCCUUGAGAGUUUAUGAAGGAUUUGCACACUCGUCUUGCCUAGGAAGUGCAAUCUCCUUGUGACUGGAGCACACUGGCAGCCUUCAGGUGUC`: “RBNS enrichment (R)” 7.38.
`CCCAGACCUGCCUUCCUCCACCAAGAGAUCCUUAUUAAACACAGCCCCCAAAGCACAGAAUGGAUUCAAUUUGUGGCCUGGGUUCAGCUCUGCCUCUGCAGUUGGCAGGU` — result for “RBNS enrichment (R)”: 0.544.

Study 4
Target: PABPC1L2, full length, GST fusion (mouse, UniProt A0ABA7IW68)
Technique: RNAcompete
Molecule type: RNA
Medium: in vitro
Tested at: 20 nM
Notes: 7-mer, probes averaged, single round
Reference: mean of 7-mers
Reading: higher = stronger binding
Construct (chain): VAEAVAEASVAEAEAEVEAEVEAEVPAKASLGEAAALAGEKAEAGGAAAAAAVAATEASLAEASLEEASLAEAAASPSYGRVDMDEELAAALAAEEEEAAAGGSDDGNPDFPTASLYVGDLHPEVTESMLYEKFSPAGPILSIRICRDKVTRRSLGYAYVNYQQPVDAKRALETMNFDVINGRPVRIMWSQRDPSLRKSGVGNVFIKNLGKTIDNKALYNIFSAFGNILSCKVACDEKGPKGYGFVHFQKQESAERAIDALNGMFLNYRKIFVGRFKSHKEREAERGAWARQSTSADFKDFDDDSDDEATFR
`AGAGCGU` gave a 7-mer Z-score of -0.278.
The 7-mer Z-score of `AGUGGAG` is reported as 0.155.
`UCGAUAC` gave a 7-mer Z-score of -0.0681.
For `CGUAGCG`, the 7-mer Z-score was -0.322.
The 7-mer Z-score of `GUCAUUA` is reported as -0.0355.
The 7-mer Z-score of `CUUCUAU` is reported as -0.456.
`GGACUUA` has a 7-mer Z-score of 0.128.
`GGCAUUC` has a 7-mer Z-score of -0.0863.
`GCCAAAG` has a 7-mer Z-score of 0.149.
For `UUAGCCA`, the 7-mer Z-score was -0.117.
The 7-mer Z-score of `UUCAAAU` is reported as -0.0301.
For `GAAGAUG`, the 7-mer Z-score was -0.119.
For `UCUUGUC`, the 7-mer Z-score was -0.45.
The 7-mer Z-score of `GGACAAC` is reported as 0.358.
`GUGUUAU` has a 7-mer Z-score of -0.311.
The 7-mer Z-score of `GAGUUAU` is reported as -0.208.
`GGAUUGG` gave a 7-mer Z-score of -0.0554.
`UCGUUCA` has a 7-mer Z-score of -0.454.
For `CUAAGCU`, the 7-mer Z-score was -0.329.
With `UGAGAUC` the 7-mer Z-score was -0.148.
`UCAUGAG` has a 7-mer Z-score of -0.135.
`GUUUAUG` has a 7-mer Z-score of -0.293.
`CUACUUU` has a 7-mer Z-score of -0.22.
`CGAGUAU` gave a 7-mer Z-score of -0.05.
`CGAGUGU` gave a 7-mer Z-score of -0.177.

Study 5
Target: Histone acetyltransferase KAT6A, winged helix 1, GST fusion (KAT6A, Homo sapiens, UniProt Q92794, residues 1-85)
Technique: protein binding microarray
Molecule type: double-stranded DNA, one strand shown
Medium: in vitro
Tested at: not given
Notes: 8-mer, flanks averaged, mean of 2 arrays, mostly near background
Reference: not given
Reading: higher = stronger binding
Construct (chain): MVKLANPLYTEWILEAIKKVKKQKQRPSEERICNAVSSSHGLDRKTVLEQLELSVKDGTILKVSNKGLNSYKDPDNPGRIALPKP
With `ACAGTAGC` the E-score was 0.0578.
`CGAAAGAC` gave an E-score of 0.0606.
With `ACCGGATC` the E-score was 0.112.
With `ACTAGAGC` the E-score was 0.0556.
For `CGTTTAAA`, the E-score was -0.0382.
For `AAGCATCG`, the E-score was -0.0325.
The E-score of `GAATCCTA` is reported as -0.19.
With `AAAAAGTG` the E-score was -0.125.
`CAGCCTTA` has an E-score of -0.211.
The E-score of `GACACGTA` is reported as -0.181.
`CTCTGATA` gave an E-score of -0.165.
For `ATGACTAA`, the E-score was -0.0567.
With `ACAGCTGC` the E-score was -0.223.
`GTGTCCGA` gave an E-score of 0.15.
With `AAGGATGG` the E-score was -0.266.
The E-score of `ATCGCCTC` is reported as -0.0382.
`CCGAGAGG` has an E-score of 0.0659.
`CTTTGTCC` gave an E-score of -0.0655.
With `CTCGTACC` the E-score was -0.0211.
For `AGCCCTTA`, the E-score was -0.148.
With `AATGCTAT` the E-score was -0.123.
`CGTGGCGA` has an E-score of 0.136.
With `GACAAGCA` the E-score was 0.0132.
`GCGATTAA` gave an E-score of 0.115.
With `GAGCTATA` the E-score was 0.00453.

Excerpt of the above (study 4):
`GGAUUGG` gave a 7-mer Z-score of -0.0554.
`UCGUUCA` has a 7-mer Z-score of -0.454.
For `CUAAGCU`, the 7-mer Z-score was -0.329.
With `UGAGAUC` the 7-mer Z-score was -0.148.
`UCAUGAG` has a 7-mer Z-score of -0.135.
`GUUUAUG` has a 7-mer Z-score of -0.293.
`CUACUUU` has a 7-mer Z-score of -0.22.
